{"data": "Measurements collected from several papers", "CFTR del508-508": "Cystic fibrosis transmembrane conductance regulator (CFTR, Homo sapiens, UniProt P13569, del508-508)", "note": "± marks the error that the study gave.", "sequence of UniProt P13569 (whole entry, unmodified, looked up)": "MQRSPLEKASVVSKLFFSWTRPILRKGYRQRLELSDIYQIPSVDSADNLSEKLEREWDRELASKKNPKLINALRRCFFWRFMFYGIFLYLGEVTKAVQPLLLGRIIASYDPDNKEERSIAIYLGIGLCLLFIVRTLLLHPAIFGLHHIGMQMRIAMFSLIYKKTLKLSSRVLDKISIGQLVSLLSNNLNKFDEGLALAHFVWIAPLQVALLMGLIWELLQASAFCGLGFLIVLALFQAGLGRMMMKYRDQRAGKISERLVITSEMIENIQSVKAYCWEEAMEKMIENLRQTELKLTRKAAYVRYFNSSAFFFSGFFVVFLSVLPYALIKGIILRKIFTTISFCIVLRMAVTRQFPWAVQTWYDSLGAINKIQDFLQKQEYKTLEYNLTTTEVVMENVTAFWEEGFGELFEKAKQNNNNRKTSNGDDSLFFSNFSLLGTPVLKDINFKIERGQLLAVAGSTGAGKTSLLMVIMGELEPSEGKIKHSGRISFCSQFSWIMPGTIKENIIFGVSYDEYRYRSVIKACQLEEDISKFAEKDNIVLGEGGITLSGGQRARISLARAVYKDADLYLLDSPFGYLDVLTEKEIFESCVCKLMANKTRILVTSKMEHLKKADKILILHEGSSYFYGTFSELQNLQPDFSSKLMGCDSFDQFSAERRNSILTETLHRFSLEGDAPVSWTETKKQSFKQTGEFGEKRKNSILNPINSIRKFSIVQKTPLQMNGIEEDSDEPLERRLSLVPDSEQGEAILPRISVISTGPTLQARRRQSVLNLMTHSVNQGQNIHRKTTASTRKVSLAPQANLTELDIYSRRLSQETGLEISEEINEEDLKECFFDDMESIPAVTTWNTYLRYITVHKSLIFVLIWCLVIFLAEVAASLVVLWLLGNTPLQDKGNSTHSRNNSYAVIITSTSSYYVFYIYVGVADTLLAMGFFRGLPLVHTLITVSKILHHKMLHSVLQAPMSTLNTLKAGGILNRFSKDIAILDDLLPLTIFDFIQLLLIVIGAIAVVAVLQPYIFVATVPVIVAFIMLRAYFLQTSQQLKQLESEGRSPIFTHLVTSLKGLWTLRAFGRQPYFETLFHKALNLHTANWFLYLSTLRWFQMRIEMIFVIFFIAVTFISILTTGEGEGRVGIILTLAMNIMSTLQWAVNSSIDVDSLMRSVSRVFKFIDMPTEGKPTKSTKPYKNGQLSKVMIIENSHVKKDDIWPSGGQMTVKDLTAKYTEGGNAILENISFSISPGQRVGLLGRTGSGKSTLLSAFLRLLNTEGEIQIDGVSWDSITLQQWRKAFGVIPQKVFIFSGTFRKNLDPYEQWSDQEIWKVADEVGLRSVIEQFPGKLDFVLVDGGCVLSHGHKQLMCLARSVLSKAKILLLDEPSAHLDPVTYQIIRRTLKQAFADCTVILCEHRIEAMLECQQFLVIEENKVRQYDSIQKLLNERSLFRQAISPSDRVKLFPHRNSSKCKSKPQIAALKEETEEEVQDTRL"}
{"Compound": "C=CCn1nc(-c2sc(NC(=O)C(C)(C)C)nc2C)cc1C(=O)NCc1ccccc1", "target": "CFTR del508-508", "assay": "iodide influx, corrector, YFP quenching", "system": "FRT expressing ΔF508-CFTR and YFP-H148Q/I152L", "conditions": "with: forskolin 20 µM + genistein 50 µM", "quantity": "Vmax", "value": "1.4 µM/s"}
{"Compound": "COc1cccc(C(=O)NCCCNc2nc3cc(C)cc(C)c3cc2C#N)c1", "target": "CFTR del508-508", "assay": "CFTR correction, corrector, iodide influx rate", "system": "FRT expressing YFP-H148Q/I152L", "conditions": "up to 25 µM, 16-20 h, 37 °C, with: forskolin 20 µM, genistein 50 µM", "quantity": "Vmax", "value": "134 µM/s"}
{"Compound": "COc1ccc(Cl)cc1Nc1nc2c(s1)CCCCc1nc(NC(=O)C3CC3)sc1-2", "target": "CFTR del508-508", "assay": "iodide influx, corrector, YFP halide quenching", "system": "FRT cells expressing YFP-H148Q/I152L", "conditions": "16 to 20 h, 37 °C, genistein 50 µM, with: forskolin 20 µM", "quantity": "Vmax", "value": "247 µM/s"}
{"Compound": "Cc1cccc(Nc2ncnc3onc(-c4ccc(F)cc4)c23)c1C", "target": "CFTR del508-508", "assay": "ion current, corrector", "system": "FRT expressing CFTR ΔF508", "conditions": "concentration not given", "scale": "baseline: DMSO", "quantity": "Vmax iodide influx", "value": "161 µM/s"}
{"Compound": "Cc1cc(C)c2cc(C#N)c(NCCNC(=O)c3ccccc3)nc2c1", "target": "CFTR del508-508", "assay": "ΔF508-CFTR correction, corrector", "system": "FRT", "conditions": "up to 25 µM, 37 °C, with: forskolin 20 µM + genistein 50 µM", "quantity": "EC50", "value": "inactive"}
{"Compound": "COc1ccc(NC(=O)c2cc(-c3sc(NC(=O)C(C)(C)C)nc3C)n(-c3ccc(Br)cc3)n2)cc1", "target": "CFTR del508-508", "assay": "iodide influx, corrector, YFP quenching", "system": "FRT expressing ΔF508-CFTR and YFP-H148Q/I152L", "conditions": "with: forskolin 20 µM + genistein 50 µM", "quantity": "Vmax", "value": "2.5 µM/s"}
{"Compound": "COC(=O)CCC(=O)Nc1nc2c(s1)-c1nc(Nc3cc(Cl)ccc3OC)sc1CCCC2", "target": "CFTR del508-508", "assay": "iodide influx, corrector, YFP halide quenching", "system": "FRT cells expressing YFP-H148Q/I152L", "conditions": "16 to 20 h, 37 °C, genistein 50 µM, with: forskolin 20 µM", "quantity": "Vmax", "value": "481 µM/s"}
{"Compound": "Cc1cc(C)c2cc(C#N)c(NCCNC(=O)c3cccnc3)nc2c1", "target": "CFTR del508-508", "assay": "CFTR correction, corrector, iodide influx rate", "system": "FRT expressing YFP-H148Q/I152L", "conditions": "up to 25 µM, 16-20 h, 37 °C, with: forskolin 20 µM, genistein 50 µM", "quantity": "Vmax", "value": "151 µM/s"}
{"Compound": "COc1ccc([N+](=O)[O-])cc1Nc1nc2c(s1)CCCc1nc(NC(=O)C(C)(C)C)sc1-2", "target": "CFTR del508-508", "assay": "iodide influx, corrector, YFP halide quenching", "system": "FRT cells expressing YFP-H148Q/I152L", "conditions": "16 to 20 h, 37 °C, genistein 50 µM, with: forskolin 20 µM", "quantity": "Vmax", "value": "485 µM/s"}
{"Compound": "Cc1cc(C)c2cc(C#N)c(N3CCN(C(=O)c4ccccn4)CC3)nc2c1", "target": "CFTR del508-508", "assay": "ΔF508-CFTR correction, corrector", "system": "FRT", "conditions": "up to 25 µM, 37 °C, with: forskolin 20 µM + genistein 50 µM", "quantity": "EC50", "value": "inactive"}
{"Compound": "CC(C)(C)c1cc(C(C)(C)C)c(NC(=O)c2c[nH]c3ccccc3c2=O)cc1O", "target": "CFTR (Homo sapiens, UniProt P13569, G551D)", "assay": "short-circuit current, potentiator", "system": "CFBE", "conditions": "14.44 µM, with: forskolin 20 µM", "scale": "baseline: PKA-activated wild type", "quantity": "CFTR activity", "value": "4.4 ± 1.1%"}
{"Compound": "COc1ccc(Cl)cc1Cn1nc(-c2sc(NC(=O)C(C)(C)C)nc2C)cc1C(=O)NCCO", "target": "CFTR del508-508", "assay": "iodide influx, corrector, YFP quenching", "system": "FRT expressing ΔF508-CFTR and YFP-H148Q/I152L", "conditions": "with: forskolin 20 µM + genistein 50 µM", "quantity": "Vmax", "value": "2.4 µM/s"}
{"Compound": "Cn1c(=O)c2c(-c3ccccc3)n3c(c2n(C)c1=O)C(c1ccc(Br)o1)Oc1ccc(C(=O)O)cc1-3 (stereo not drawn)", "target": "CFTR (Homo sapiens, UniProt P13569)", "assay": "chloride current, inhibitor, short-circuit current", "system": "FRT cells", "scale": "baseline: 8", "quantity": "potency improvement", "value": "~10 fold"}
{"Compound": "CCC(C)C(=O)Nc1nc2c(s1)-c1nc(Nc3cc(Cl)ccc3OC)sc1CCCC2 (stereo not drawn)", "target": "CFTR del508-508", "assay": "iodide influx, corrector, YFP halide quenching", "system": "FRT cells expressing YFP-H148Q/I152L", "conditions": "16 to 20 h, 37 °C, genistein 50 µM, with: forskolin 20 µM", "quantity": "Vmax", "value": "286 µM/s"}
{"Compound": "COc1ccc(NC(=O)c2cc(-c3sc(NC(=O)C(C)(C)C)nc3C)nn2Cc2cc(Cl)ccc2OC)cc1", "target": "CFTR del508-508", "assay": "iodide influx, corrector, YFP quenching", "system": "FRT expressing ΔF508-CFTR and YFP-H148Q/I152L", "conditions": "with: forskolin 20 µM + genistein 50 µM", "quantity": "Vmax", "value": "6.1 µM/s"}
{"note": "For quick reference, copied from above:"}
{"Compound": "COc1ccc(Cl)cc1Nc1nc2c(s1)CCCCc1nc(NC(=O)C3CC3)sc1-2", "target": "CFTR del508-508", "assay": "iodide influx, corrector, YFP halide quenching", "system": "FRT cells expressing YFP-H148Q/I152L", "conditions": "16 to 20 h, 37 °C, genistein 50 µM, with: forskolin 20 µM", "quantity": "Vmax", "value": "247 µM/s"}
{"Compound": "Cc1cccc(Nc2ncnc3onc(-c4ccc(F)cc4)c23)c1C", "target": "CFTR del508-508", "assay": "ion current, corrector", "system": "FRT expressing CFTR ΔF508", "conditions": "concentration not given", "scale": "baseline: DMSO", "quantity": "Vmax iodide influx", "value": "161 µM/s"}
